Assay results gathered from unrelated publications.
Lines come from different studies, so protocols differ. ± marks the error that the study gave.
CNR1 I245L: Cannabinoid receptor 1 (CNR1, Homo sapiens, UniProt P21554, I245L)
Sequence of UniProt P21554 (whole entry, unmodified, looked up): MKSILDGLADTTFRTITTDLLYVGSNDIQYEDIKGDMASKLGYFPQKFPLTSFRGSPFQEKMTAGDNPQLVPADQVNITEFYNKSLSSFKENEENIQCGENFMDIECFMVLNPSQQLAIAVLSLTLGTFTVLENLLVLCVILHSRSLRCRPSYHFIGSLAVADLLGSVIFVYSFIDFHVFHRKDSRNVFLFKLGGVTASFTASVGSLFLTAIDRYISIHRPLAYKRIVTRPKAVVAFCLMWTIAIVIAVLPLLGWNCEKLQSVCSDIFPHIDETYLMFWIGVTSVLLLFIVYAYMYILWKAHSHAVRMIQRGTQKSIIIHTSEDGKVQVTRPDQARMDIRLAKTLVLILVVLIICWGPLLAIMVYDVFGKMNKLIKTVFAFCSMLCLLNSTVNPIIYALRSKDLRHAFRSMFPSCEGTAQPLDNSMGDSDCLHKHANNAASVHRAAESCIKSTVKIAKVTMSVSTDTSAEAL
Sequence of UniProt Q9UPC5 (whole entry, looked up): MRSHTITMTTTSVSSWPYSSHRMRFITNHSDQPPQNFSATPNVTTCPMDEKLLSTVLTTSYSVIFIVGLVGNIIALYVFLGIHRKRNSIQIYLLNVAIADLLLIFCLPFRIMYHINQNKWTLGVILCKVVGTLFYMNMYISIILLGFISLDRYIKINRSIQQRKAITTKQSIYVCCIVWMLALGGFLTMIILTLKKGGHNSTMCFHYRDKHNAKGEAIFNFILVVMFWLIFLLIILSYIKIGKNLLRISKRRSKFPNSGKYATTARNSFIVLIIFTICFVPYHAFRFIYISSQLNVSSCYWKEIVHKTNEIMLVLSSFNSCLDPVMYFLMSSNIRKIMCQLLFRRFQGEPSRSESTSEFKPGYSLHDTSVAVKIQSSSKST
Sequence of UniProt P41143 (whole entry, unmodified, looked up): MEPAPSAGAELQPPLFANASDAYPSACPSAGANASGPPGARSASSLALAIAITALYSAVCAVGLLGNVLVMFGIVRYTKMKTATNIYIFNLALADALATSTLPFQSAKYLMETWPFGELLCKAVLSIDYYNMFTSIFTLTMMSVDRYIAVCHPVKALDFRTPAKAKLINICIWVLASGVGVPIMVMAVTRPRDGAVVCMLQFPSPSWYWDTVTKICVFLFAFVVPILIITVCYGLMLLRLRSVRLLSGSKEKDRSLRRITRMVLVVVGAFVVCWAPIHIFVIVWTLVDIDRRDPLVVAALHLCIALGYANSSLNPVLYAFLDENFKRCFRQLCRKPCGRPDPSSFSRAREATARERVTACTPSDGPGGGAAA
Sequence of UniProt P07384 (whole entry, looked up): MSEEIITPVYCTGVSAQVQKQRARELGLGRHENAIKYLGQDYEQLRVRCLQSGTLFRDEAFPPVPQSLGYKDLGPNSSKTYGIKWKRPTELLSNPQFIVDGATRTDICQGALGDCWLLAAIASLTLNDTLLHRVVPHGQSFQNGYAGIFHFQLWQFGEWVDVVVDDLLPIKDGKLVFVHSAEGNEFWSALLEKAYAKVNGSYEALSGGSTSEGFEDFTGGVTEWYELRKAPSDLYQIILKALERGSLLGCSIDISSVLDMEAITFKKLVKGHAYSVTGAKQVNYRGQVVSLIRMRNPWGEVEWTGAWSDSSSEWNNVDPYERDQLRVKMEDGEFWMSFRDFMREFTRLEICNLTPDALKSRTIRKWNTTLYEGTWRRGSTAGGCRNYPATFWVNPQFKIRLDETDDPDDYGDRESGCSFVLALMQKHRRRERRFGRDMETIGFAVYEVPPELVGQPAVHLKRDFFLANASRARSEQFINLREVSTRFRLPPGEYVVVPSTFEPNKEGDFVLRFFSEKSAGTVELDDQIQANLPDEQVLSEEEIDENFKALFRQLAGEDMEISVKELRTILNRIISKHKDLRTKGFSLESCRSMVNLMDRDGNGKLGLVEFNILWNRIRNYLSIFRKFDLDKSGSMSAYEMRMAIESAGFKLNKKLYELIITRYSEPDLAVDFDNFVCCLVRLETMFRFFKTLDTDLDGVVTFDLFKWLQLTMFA
Sequence of UniProt P07948 (whole entry, looked up): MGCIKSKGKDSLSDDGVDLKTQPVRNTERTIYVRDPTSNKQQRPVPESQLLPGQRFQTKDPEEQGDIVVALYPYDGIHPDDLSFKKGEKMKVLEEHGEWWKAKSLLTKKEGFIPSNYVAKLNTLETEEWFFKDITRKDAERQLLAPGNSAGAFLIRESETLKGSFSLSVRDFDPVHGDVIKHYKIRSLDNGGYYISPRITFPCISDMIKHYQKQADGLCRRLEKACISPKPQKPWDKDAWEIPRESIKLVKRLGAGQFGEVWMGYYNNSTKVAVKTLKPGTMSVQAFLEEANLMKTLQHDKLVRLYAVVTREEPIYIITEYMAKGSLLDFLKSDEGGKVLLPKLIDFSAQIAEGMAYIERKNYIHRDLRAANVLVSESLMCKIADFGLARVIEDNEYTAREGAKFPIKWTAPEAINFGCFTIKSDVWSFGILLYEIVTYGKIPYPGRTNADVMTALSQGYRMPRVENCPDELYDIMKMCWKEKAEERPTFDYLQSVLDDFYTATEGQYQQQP
Sequence of UniProt P35462 (whole entry, looked up): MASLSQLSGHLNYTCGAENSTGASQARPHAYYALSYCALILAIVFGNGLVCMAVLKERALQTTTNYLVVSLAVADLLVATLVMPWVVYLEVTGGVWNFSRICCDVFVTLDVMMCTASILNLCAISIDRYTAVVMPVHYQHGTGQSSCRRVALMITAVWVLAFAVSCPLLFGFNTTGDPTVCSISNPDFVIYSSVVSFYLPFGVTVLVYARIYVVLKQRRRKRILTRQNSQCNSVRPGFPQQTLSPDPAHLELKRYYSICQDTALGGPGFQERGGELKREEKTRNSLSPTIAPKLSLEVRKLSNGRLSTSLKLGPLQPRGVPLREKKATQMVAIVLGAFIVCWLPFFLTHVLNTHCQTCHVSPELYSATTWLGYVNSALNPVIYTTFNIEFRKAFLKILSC
Sequence of UniProt P41586 (whole entry, unmodified, looked up): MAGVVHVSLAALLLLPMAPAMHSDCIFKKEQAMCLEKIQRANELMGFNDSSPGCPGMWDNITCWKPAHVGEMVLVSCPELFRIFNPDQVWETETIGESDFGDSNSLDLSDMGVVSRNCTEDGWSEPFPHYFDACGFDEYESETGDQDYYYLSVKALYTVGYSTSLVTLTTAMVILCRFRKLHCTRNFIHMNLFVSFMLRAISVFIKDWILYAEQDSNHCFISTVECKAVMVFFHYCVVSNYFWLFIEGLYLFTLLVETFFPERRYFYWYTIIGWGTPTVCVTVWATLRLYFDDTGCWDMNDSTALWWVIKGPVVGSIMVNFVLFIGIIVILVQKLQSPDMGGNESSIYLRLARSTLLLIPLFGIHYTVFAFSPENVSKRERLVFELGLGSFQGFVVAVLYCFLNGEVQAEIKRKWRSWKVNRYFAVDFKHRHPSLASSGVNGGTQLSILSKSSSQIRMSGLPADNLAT
Sequence of UniProt Q15910 (whole entry, looked up): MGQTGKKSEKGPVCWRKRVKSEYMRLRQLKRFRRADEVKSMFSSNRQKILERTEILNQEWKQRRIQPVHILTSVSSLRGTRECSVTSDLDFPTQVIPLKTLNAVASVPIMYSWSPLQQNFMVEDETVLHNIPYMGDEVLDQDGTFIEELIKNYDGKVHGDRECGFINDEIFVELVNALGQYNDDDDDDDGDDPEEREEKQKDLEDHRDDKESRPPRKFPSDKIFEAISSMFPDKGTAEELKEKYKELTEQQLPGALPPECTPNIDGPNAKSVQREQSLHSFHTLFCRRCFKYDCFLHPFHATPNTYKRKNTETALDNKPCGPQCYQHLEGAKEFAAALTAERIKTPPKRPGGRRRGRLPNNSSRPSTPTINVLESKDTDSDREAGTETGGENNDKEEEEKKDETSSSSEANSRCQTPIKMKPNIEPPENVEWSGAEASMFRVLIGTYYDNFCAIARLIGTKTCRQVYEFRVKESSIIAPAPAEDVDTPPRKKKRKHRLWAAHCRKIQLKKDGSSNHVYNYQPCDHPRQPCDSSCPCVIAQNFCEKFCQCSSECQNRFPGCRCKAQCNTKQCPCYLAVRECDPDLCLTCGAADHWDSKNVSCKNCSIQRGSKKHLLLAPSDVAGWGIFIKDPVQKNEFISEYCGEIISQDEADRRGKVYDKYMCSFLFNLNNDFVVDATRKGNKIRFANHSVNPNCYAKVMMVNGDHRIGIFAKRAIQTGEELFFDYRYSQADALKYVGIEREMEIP
Sequence of UniProt P34972 (whole entry, unmodified, looked up): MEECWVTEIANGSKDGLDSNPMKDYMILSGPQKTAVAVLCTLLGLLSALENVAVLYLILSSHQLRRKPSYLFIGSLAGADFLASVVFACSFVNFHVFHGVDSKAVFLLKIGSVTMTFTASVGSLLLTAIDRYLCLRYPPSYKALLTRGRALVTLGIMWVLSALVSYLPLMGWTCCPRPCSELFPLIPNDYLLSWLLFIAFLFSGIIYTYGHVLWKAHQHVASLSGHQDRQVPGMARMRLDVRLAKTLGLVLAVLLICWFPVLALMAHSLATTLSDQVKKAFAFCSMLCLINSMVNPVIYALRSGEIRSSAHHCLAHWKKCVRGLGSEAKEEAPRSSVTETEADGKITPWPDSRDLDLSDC
Sequence of UniProt P28221 (whole entry, looked up): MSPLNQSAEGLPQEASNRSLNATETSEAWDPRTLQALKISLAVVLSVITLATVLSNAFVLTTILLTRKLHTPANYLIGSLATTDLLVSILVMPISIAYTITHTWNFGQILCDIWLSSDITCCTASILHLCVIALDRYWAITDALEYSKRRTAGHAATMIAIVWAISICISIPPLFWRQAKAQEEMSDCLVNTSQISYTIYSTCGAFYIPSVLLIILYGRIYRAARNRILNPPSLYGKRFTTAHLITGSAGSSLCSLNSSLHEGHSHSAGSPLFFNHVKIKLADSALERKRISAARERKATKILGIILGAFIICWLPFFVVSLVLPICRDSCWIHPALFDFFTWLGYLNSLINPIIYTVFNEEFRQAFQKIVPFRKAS

With `COc1ccccc1C(C[N+](=O)[O-])c1c(-c2ccccc2)[nH]c2ccccc12` (stereo not shown) the EC50 was over 12000 nM (CNR1 I245L; G protein activation, agonist, BRET).
For `O=C(Cc1ccc(OCc2ccccc2)cc1)NC1(C(=O)O)CCN(C(=O)c2ccc(-c3cccc(Cl)c3)cc2)CC1`, the IC50 was 258 nM (Probable G-protein coupled receptor 34 (Homo sapiens, UniProt Q9UPC5); G protein activation, antagonist, BRET).
With `CC(C)CC(C(=O)N1CC2(CC1C#N)C(=O)Nc1ccccc12)N(C)C(=O)c1cc2c(F)cc(F)c(F)c2[nH]1` (stereo not shown) the IC50 was over 100000 nM (CAPN1 (Homo sapiens, UniProt P07384)).
The Ki of `CCN(CC)C(=O)[C@@H]1C=C2c3cccc4c3c(cn4C(=O)c3ccco3)C[C@H]2N(C)C1` is reported as 1150 nM (HTR1D (Homo sapiens, UniProt P28221); ligand displacement, radioligand).
`CC[C@H](C)[C@H](NC(=O)[C@H](CO)NC(=O)[C@H](CC(N)=O)NC(=O)[C@H](CC(C)C)NC(=O)[C@H](Cc1ccc(O)cc1)NC(=O)[C@H](CCCCN)NC(=O)[C@H](CCCCN)NC(=O)[C@@H](NC(=O)[C@H](C)NC(=O)[C@H](CCSC)NC(=O)[C@H](CCC(N)=O)NC(=O)[C@H](CCCCN)NC(=O)[C@H](CCCN=C(N)N)NC(=O)[C@H](CC(C)C)NC(=O)[C@H](CCCN=C(N)N)NC(=O)[C@@H](NC(=O)[C@H](Cc1ccc(O)cc1)NC(=O)[C@H](CC(N)=O)NC(=O)[C@H](CC(=O)O)NC(=O)[C@@H](NC(=O)[C@H](Cc1ccccc1)NC(=O)[C@@H](NC(=O)[C@H](C)NC(=O)[C@H](CC(=O)O)NC(=O)[C@H](CO)NC(=O)[C@@H](N)Cc1c[nH]cn1)C(C)C)[C@@H](C)O)[C@@H](C)O)C(C)C)C(=O)N[C@@H](CC(C)C)C(=O)N[C@@H](CC(N)=O)C(N)=O` has an EC50 of 316 nM (ADCYAP1R1 (Homo sapiens, UniProt P41586, del89-109); β-arrestin recruitment, agonist, BRET).
With `Cc1ccc2c(C(C[N+](=O)[O-])c3cccs3)c(-c3ccccc3)[nH]c2c1` (stereo not shown) the EC50 was 30 nM (CNR1 I245L; G protein activation, agonist, BRET).
`CNCc1ccc(-c2cc(Cl)ccc2Cl)o1` gave a Ki of 700 nM (DRD3 (Homo sapiens, UniProt P35462); binding).
`CCCCCn1cc(C(=O)c2cccc3c2CC(C)(C)C3)c2ccccc21` has an EC50 of 1.62 nM (CNR2 (Homo sapiens, UniProt P34972, L182I); cAMP, agonist, BRET).
`O=[N+]([O-])CC(c1cccs1)c1c(-c2ccccc2)[nH]c2ccccc12` (stereo not shown) has an EC50 of 280 nM (CNR1 (Homo sapiens, UniProt P21554); G protein activation, agonist, BRET).
With `CCCCCc1cc(O)c2c(c1)OC(C)(C)C1=C2C(OC)C(C)(O)CC1` (stereo not shown) the IC50 was 470000 nM (Si (Rattus norvegicus, UniProt P23739); enzyme activity, inhibitor, absorbance).
`CCN(CC)C(=O)c1ccc(C(c2cccc(O)c2)N2CC(C)N(Cc3ccccc3)CC2C)cc1` (stereo not shown) has a Ki of 1.26 ± 0.19 nM (OPRD1 (Homo sapiens, UniProt P41143, D210N)).
With `CC(C)n1nc(-c2ccc3c(c2)OCO3)c2c(N)ncnc21` the Ki was 160 nM (LYN (Homo sapiens, UniProt P07948); enzyme activity, inhibitor).
The IC50 of `CSc1cc(C)[nH]c(=O)c1CNC(=O)c1c(C)n([C@H](C)C2CCN(CC(F)(F)F)CC2)c2ccccc12` is reported as 0.2 nM (Histone-lysine N-methyltransferase EZH2, PRC2 pentameric complex (EZH2, Homo sapiens, UniProt Q15910); enzyme activity, inhibitor; with: H3K27me3 activating peptide).
